# Published values of several laboratories.
# Values joined by “and” are separate records of one study, mostly repeats; a detail may differ. ± gives the spread as reported.
# LRP1 D1085A CR8 domain D1085A: LRP1, CR8 domain D1085A (Homo sapiens, UniProt Q07954, D1085A)
# Chain of UniProt Q07954 (whole entry, unmodified, looked up): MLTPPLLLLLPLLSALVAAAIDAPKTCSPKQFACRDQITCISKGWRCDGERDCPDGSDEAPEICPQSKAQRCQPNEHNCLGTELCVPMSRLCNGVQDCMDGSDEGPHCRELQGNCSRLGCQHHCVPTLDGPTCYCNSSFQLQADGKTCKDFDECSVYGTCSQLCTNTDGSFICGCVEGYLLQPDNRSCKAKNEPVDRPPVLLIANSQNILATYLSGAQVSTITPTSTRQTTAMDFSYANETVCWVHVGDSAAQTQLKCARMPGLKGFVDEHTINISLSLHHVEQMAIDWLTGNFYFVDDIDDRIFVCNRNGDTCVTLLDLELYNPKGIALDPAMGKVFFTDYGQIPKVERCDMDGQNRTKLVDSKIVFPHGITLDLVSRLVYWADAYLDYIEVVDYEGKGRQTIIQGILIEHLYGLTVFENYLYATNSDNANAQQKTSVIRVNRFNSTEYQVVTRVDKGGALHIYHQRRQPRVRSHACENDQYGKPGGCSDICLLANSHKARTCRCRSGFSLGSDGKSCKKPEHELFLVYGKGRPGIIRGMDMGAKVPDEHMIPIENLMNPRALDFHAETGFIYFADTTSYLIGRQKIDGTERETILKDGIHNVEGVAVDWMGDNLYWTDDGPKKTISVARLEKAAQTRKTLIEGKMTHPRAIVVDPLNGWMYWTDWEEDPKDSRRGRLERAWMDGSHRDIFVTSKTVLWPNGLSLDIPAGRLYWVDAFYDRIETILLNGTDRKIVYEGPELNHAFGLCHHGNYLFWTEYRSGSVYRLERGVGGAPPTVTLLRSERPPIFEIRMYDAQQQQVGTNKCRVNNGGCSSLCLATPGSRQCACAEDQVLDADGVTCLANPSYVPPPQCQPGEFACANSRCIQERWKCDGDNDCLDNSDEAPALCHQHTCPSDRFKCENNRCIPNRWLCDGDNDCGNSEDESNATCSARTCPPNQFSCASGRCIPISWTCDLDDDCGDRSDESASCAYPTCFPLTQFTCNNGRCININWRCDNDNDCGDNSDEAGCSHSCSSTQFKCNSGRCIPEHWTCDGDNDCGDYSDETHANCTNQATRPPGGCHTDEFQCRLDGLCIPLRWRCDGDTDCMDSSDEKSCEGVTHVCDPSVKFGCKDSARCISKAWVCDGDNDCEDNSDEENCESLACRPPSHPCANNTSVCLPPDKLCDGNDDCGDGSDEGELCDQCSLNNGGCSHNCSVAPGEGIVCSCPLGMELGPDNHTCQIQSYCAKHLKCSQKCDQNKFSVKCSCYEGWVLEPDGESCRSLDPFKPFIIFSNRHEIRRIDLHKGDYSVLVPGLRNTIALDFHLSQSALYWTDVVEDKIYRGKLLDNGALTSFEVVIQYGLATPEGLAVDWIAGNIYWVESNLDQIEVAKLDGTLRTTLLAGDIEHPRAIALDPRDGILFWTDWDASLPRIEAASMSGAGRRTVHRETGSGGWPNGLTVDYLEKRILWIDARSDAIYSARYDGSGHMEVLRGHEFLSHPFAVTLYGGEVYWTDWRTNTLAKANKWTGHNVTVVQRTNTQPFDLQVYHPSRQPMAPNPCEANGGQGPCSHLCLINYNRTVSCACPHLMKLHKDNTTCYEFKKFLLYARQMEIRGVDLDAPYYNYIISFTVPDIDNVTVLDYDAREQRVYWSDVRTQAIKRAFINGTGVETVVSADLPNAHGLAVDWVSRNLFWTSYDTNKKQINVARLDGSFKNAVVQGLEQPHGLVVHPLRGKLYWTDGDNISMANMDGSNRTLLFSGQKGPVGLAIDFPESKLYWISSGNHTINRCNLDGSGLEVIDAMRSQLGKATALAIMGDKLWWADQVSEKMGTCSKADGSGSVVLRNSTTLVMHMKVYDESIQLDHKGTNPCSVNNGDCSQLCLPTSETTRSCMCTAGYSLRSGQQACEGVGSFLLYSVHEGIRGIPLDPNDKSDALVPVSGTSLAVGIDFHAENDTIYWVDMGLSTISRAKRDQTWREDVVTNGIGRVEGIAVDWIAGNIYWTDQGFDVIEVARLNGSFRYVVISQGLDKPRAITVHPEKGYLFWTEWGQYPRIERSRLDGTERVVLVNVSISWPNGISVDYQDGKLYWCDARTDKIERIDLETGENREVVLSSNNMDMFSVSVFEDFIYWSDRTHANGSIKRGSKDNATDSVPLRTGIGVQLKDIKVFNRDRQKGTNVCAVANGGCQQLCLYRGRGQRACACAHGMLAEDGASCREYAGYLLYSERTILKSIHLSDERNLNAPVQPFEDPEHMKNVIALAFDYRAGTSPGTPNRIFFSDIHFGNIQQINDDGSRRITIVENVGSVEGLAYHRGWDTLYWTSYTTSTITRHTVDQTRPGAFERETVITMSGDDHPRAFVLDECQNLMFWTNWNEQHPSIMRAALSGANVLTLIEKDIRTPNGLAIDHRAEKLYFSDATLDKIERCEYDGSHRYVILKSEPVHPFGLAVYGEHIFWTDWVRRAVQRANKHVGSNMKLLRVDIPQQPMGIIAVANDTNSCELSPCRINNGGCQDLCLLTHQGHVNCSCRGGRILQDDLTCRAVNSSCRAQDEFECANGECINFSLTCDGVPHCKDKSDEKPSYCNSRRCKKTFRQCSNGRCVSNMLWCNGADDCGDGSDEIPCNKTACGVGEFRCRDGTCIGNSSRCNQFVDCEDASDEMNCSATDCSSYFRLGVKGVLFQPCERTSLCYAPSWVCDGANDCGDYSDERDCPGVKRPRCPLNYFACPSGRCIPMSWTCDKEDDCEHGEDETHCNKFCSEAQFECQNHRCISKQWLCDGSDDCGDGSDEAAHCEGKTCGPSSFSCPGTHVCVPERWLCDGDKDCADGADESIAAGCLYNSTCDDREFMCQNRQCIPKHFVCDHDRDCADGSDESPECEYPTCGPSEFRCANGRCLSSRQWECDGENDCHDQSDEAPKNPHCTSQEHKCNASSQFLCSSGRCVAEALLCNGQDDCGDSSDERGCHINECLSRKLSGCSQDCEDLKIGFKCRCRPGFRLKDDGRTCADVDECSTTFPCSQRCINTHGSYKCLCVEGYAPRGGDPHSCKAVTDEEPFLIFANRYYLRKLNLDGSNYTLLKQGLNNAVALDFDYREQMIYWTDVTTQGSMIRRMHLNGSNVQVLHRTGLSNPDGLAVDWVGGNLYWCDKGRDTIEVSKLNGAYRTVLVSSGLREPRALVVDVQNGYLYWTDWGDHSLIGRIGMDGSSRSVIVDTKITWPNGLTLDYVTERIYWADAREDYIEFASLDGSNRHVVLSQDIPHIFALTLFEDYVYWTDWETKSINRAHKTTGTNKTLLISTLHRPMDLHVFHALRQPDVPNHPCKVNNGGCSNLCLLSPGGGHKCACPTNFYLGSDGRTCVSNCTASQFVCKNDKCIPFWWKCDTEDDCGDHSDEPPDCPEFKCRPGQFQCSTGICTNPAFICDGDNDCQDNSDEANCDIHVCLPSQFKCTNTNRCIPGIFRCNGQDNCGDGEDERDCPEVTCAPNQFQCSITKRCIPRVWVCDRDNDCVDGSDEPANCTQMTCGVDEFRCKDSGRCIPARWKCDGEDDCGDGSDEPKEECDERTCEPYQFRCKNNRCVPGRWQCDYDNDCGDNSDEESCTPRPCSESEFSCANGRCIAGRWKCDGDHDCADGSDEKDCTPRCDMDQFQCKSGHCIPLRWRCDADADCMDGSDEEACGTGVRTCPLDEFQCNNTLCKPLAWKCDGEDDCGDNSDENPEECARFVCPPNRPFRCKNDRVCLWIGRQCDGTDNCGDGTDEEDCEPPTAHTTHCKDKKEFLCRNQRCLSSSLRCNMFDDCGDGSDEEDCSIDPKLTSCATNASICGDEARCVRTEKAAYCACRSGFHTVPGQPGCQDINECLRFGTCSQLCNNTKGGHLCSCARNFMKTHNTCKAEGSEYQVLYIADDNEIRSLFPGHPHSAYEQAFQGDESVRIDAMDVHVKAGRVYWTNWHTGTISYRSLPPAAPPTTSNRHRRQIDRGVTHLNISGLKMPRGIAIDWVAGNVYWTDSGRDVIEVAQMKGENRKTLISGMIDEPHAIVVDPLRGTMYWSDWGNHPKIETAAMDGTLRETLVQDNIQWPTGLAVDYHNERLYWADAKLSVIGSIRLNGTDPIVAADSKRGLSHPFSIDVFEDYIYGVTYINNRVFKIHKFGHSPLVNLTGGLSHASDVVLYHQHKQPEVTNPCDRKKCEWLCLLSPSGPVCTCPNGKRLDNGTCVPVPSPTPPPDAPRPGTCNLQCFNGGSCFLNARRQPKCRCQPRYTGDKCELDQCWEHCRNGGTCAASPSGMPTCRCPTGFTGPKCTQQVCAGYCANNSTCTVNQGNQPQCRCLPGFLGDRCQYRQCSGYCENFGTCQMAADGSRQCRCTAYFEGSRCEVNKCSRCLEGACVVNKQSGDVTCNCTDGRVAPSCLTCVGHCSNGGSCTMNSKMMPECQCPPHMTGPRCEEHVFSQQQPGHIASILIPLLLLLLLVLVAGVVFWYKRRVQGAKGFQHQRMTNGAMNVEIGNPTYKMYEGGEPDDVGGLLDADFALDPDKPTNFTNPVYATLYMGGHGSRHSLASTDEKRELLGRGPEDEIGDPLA
# PPIA: Peptidyl-prolyl cis-trans isomerase A (PPIA, Homo sapiens, UniProt P62937)
# Chain of UniProt P62937 (whole entry, looked up): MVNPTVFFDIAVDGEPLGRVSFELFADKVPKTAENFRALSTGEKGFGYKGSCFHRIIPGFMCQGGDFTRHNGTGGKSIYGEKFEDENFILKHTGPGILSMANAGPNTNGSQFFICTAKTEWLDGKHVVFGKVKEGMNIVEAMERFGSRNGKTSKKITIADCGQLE
# GRB2: Growth factor receptor-bound protein 2 (GRB2, Homo sapiens, UniProt P62993)
# HCRTR1: Orexin/Hypocretin receptor type 1 (HCRTR1, Homo sapiens, UniProt O43613)
# Chain of UniProt O43613 (whole entry, looked up): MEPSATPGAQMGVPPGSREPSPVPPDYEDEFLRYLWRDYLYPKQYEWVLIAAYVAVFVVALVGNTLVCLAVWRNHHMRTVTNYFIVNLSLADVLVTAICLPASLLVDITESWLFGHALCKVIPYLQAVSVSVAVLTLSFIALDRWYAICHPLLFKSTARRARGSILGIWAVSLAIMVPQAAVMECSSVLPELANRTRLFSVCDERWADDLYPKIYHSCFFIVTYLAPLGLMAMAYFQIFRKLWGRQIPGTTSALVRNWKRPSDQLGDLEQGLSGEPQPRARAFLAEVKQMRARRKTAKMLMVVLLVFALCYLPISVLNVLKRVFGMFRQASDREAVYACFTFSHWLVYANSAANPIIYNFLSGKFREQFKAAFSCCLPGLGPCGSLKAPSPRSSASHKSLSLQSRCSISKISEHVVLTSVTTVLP
Molecule,target,assay,system,conditions,scale,Kd
COC(=O)[C@@H](N)CCCCN,LRP1 D1085A CR8 domain D1085A,tryptophan fluorescence titration,,"pH 7.4, 298 K, ionic strength 0.02",,3900 ± 270 µM
CC(=O)O[C@H]1C(=O)[C@@]2(C)[C@H]([C@H](OC(=O)c3ccccc3)[C@]3(O)C[C@H](OC(=O)[C@H](O)[C@@H](NC(=O)c4ccccc4)c4ccccc4)C(C)=C1C3(C)C)[C@]1(OC(C)=O)CO[C@@H]1C[C@@H]2O,"Cytochrome P450 2C8 (CYP2C8, Homo sapiens, UniProt P10632, K399R/R139K)","ligand binding, equilibrium spectral binding",purified protein,"pH 7.4, 25 °C, high-affinity site, 1% CHAPS",,0.46 ± 0.12 µM
COC(=O)c1cc(Cc2ccc(NCc3ccccc3)c(C(=O)OC)c2)ccc1NCc1ccccc1,PPIA,"binding, SPR",,pH 7.4,,414 µM
Cc1cc2nc3c(=O)[nH]c(=O)nc-3n(C[C@H](O)[C@H](O)[C@H](O)COP(=O)(O)O)c2cc1C,"Probable flavin reductase (luxG, Photobacterium leiognathi, UniProt P29237)",binding,,"pH 8.0, 4 °C, upper limit estimate, with: NADH 300 µM",,< 2.5 µM
CN(CCOc1ccc(CC2SC(=O)NC2=O)cc1)c1ccccn1 (stereo not drawn),"Cytochrome P450 2C8 (CYP2C8, Homo sapiens, UniProt P10632)","ligand binding, equilibrium spectral binding",purified protein,"pH 7.4, 25 °C, high-affinity site, 1% CHAPS",,0.002 ± 0.001 µM
CC(=O)N[C@H]1C(O)O[C@H](CO)[C@@H](O[C@@H]2O[C@H](CO)[C@H](O)[C@H](O)[C@H]2O)[C@@H]1O (stereo partly drawn),"Galectin-1 (LGALS1, Homo sapiens, UniProt P09382)",,,,,81.7 ± 1.7 µM
O=P(O)(O)O[C@H]1[C@H](OP(=O)(O)O)[C@@H](O)[C@H](O)[C@H](O)[C@@H]1OP(=O)(O)O,"Fermitin family homolog 2, PH domain (Fermt2, Mus musculus, UniProt Q8CIB5)",SPR,,"pH 7.5, biotinylated compound immobilised",,159 µM
c1ccc2c(c1)cc1ccc3cccc4ccc2c1c34,"Cytochrome P450 1B1 (CYP1B1, Homo sapiens, UniProt Q16678)","binding, fluorescence",,pH 7.4,,< 2.5 µM and 1 µM
CSCC[C@H](NC(=O)[C@H](CC(C)C)NC(=O)[C@H](CCCCN)NC(=O)[C@H](CCCCN)NC(=O)[C@H](Cc1c[nH]cn1)NC(=O)[C@H](CCCNC(=N)N)NC(=O)[C@H](CO)NC(=O)[C@@H](NC(=O)[C@H](CO)NC(=O)[C@H](CCC(N)=O)NC(=O)CNC(=O)[C@H](CCCCN)NC(=O)[C@H](CCCCN)NC(=O)[C@H](CO)NC(=O)[C@H](CCCCN)NC(=O)[C@H](CC(C)C)NC(=O)[C@H](Cc1c[nH]cn1)NC(=O)[C@H](CO)NC(=O)[C@H](Cc1ccc(O)cc1)NC(C)=O)[C@@H](C)O)C(=O)N[C@@H](Cc1ccccc1)C(=O)N[C@@H](CCCCN)C(=O)N[C@H](C(=O)N[C@@H](CCC(=O)O)C(N)=O)[C@@H](C)O,"Protein S100-B (Homo sapiens, UniProt P04271)","binding, isothermal titration calorimetry",,"high salt, with: Ca2+, NaCl 120 mM",,20 ± 5 µM
O=C1c2c(O)ccc(O)c2C(=O)c2c(NCCNCCO)ccc(NCCNCCO)c21,HIV-1 SL4 RNA stem-loop,"binding, ESI-FTMS titration",,pH 7.5,,10 ± 0.7 µM
CC1=C(/C=C/C(C)=C/C=C/C(C)=C/C=C/C=C(C)/C=C/C=C(C)/C=C/C2=C(C)CCCC2(C)C)C(C)(C)CCC1,"GSTP1 (Homo sapiens, UniProt P09211)",surface plasmon resonance,,"25 °C, 1:1 binding model",,1.09 ± 0.01 µM
O=C(O)CC(O)(CC(=O)O)C(=O)O,"SLC4A1 (Homo sapiens, UniProt P02730)",chloride exchange flux,human red blood cells,"0 °C, external pH 8.0, outward-facing state",,49500 µM
CN(C)[C@@H]1C(O)=C(C(N)=O)C(=O)[C@@]2(O)C(O)=C3C(=O)c4c(O)ccc(Cl)c4[C@@](C)(O)[C@H]3C[C@@H]12,HIV-1 SL4 RNA stem-loop,"binding, ESI-FTMS titration",,pH 7.5,,391 ± 81.1 µM
CC[C@H](C)[C@H](NC(=O)[C@@H]1CCCN1)C(=O)N1CCC[C@H]1C(=O)N[C@H](C(=O)N[C@@H](CC(=O)O)C(=O)N[C@@H](CCCNC(=N)N)C(=O)N[C@@H](CC(N)=O)C(=O)N[C@@H](CC(C)C)C(=O)N[C@@H](CCCCN)C(=O)N1CCC[C@H]1C(=O)N[C@@H](CC(=O)O)C(=O)N[C@@H](CCCNC(=N)N)C(=O)O)C(C)C,GRB2,"binding, ITC",,pH 8,,564 µM
Cn1cc(NC(=O)c2cc(NC(=O)c3cc(NC=O)cn3C)cn2C)cc1C(=O)NCCC(=N)N,HIV-1 SL3 RNA stem-loop,"binding, ESI-FTMS titration",,pH 7.5,,28.5 ± 4.7 µM
COc1ccc(CC2c3cc(OC)c(OC)cc3CCN2CC(=O)NCc2cccnc2)cc1OC (stereo not drawn),HCRTR1,,,,,0.152 ± 0.041 µM
CSCC[C@H](NC(=O)[C@H](CC(C)C)NC(=O)[C@H](CC(C)C)NC(=O)[C@H](CC(C)C)NC(=O)[C@H](C)N)C(=O)N[C@@H](Cc1ccc(O)cc1)C(=O)N[C@@H](CCCNC(=N)N)C(=O)N[C@@H](CCCNC(=N)N)C(=O)O,"dnaK (Escherichia coli, UniProt P0A6Y8)","peptide binding, surface plasmon resonance",,with: ADP,,2.44 µM
fibrinogen,"ITGAM (Homo sapiens, UniProt P11215)",binding,,,,0.12 µM
COc1ccc(CC2c3cc(OC)c(OC)cc3CCN2CC(=O)NC2CC(C)Nc3ccccc32)cc1OC (stereo not drawn),HCRTR1,,,,,7.17 ± 0.39 µM
NC[C@H]1O[C@H](O[C@H]2[C@H](O)[C@@H](O[C@H]3O[C@H](CO)[C@@H](O)[C@H](N)[C@H]3O)[C@H](N)C[C@@H]2N)[C@H](N)C[C@@H]1O,HIV-1 SL3 RNA stem-loop,"binding, ESI-FTMS titration",,pH 7.5,,38.7 ± 3.7 µM
PGNESLKAMLFCLFKLSSCNQSNDGSVSHQS,"anti-EGFR antibody, rabbit","binding, surface plasmon resonance",peptide,pH 7.4,lower = stronger binding,0.634 µM
CCCC(=O)Oc1cc2c(cc1OC)CCN(CC(=O)NCc1ccccc1)C2Cc1ccc(OC)c(OC)c1 (stereo not drawn),HCRTR1,,,,,0.0785 ± 0.024 µM
CCNC(=O)[C@H]1O[C@@H](n2cnc3c(NCCCCNC(=O)CCCCCNC(=O)COc4ccc(/C=C/c5ccc6n5[B-](F)(F)[N+]5=C(c7cccs7)C=CC5=C6)cc4)ncnc32)[C@H](O)[C@@H]1O,"ADORA1 (Homo sapiens, UniProt P30542)","binding, NanoBRET saturation",HEK293 expressing Nluc-A1,"1 h, 37 °C",,0.167 ± 0.0744 µM
COc1ccc(CC2c3cc(OC)c(OC)cc3CCN2CC(=O)Nc2ccnc3c(F)cccc23)cc1OC (stereo not drawn),HCRTR1,,,,,4.22 ± 1.1 µM
C#Cc1cccc(CN2CCC3=C(C2)C(=O)N(Cc2ccc(Cl)cc2)C2=NCCN23)c1,"CLPP (Homo sapiens, UniProt Q16740)","casein-FITC degradation, activator",,,,0.0237 ± 0.01 µM
O.O=C([O-])CN(CCN(CC(=O)[O-])Cc1cc(CCC(=O)O)ccc1O)Cc1cc(CCC(=O)NCCCCCC(=O)NCCCC[C@H](NC(=O)N[C@@H](CCC(=O)O)C(=O)O)C(=O)O)ccc1[O-].[Ga+3],"FOLH1 (Homo sapiens, UniProt Q04609)","binding, radioligand",,,,0.00289 µM
COc1cccc2c1C(=O)c1c(O)c3c(c(O)c1C2=O)C[C@@](O)(C(C)=O)C[C@@H]3O[C@H]1C[C@H](N)[C@H](O)[C@H](C)O1,HIV-1 SL3 RNA stem-loop,"binding, ESI-FTMS titration",,pH 7.5,,8.2 ± 0.9 µM
CCCOc1cc2c(cc1OC)CCN(CC(=O)NCc1cccnc1)C2Cc1ccc(OC)c(OC)c1 (stereo not drawn),HCRTR1,,,,,0.0419 ± 0.016 µM
CC(=O)N1CCC[C@H]1C(=O)N[C@@H](CCCNC(=N)N)C(=O)N[C@H](C(=O)N1CCC[C@H]1C(=O)N1CCC[C@H]1C(=O)N1CCC[C@H]1C(=O)N1CCC[C@H]1C(=O)N[C@H](C(=O)N[C@@H](CCCNC(=N)N)C(=O)N[C@@H](CCCNC(=N)N)C(N)=O)C(C)C)C(C)C,"Growth factor receptor-bound protein 2, N-terminal SH3 domain (GRB2, Homo sapiens, UniProt P62993)","binding, tryptophan fluorescence",PBS,21 °C,,173.1 ± 1.16 µM
CC(C)C[C@H](NC(=O)[C@H](CC(N)=O)NC(=O)[C@H](CCCNC(=N)N)NC(=O)[C@H](CC(=O)O)NC(=O)[C@@H](NC(=O)[C@H](C)NC(=O)[C@@H]1CCCN1C(=O)[C@@H]1CCCN1)C(C)C)C(=O)N[C@@H](CCCCN)C(=O)N1CCC[C@H]1C(=O)N[C@@H](CC(=O)O)C(=O)N[C@@H](CCCNC(=N)N)C(=O)O,GRB2,"binding, ITC",,pH 8,,85 µM
COC(=O)c1cc(Cc2ccc(NC(=O)c3ccc(Cl)cc3)c(C(=O)OC)c2)ccc1NC(=O)c1ccc(Cl)cc1,PPIA,"binding, SPR",,pH 7.4,,140 µM
COC(=O)[C@H](CCCCN)NC(C)=O,LRP1 D1085A CR8 domain D1085A,tryptophan fluorescence titration,,"pH 7.4, 298 K, ionic strength 0.02",,12700 ± 2900 µM
COc1ccc(CC2c3cc(OC)c(OC)cc3CCN2CC(=O)N(C)Cc2ccccc2)cc1OC (stereo not drawn),HCRTR1,,,,,2.09 ± 0.33 µM
OCCCCCOc1ccc(Cl)cc1,"Regulator of G-protein signaling 17 (Homo sapiens, UniProt Q9UGC6)","binding, NMR",,,,2900 µM
NC(=O)C1=CN([C@@H]2O[C@H](COP(=O)(O)OP(=O)(O)OC[C@H]3O[C@@H](n4cnc5c(N)ncnc54)[C@H](OP(=O)(O)O)[C@@H]3O)[C@@H](O)[C@H]2O)C=CC1,"Enoyl-ACP reductase (Thermus thermophilus, UniProt P83818)","substrate, stopped-flow reductive half-reaction",,,,17 µM
TNP-ATP trisodium salt,"msbA (Escherichia coli, UniProt P60752, L511P)",fluorescence titration,,,,0.33 ± 0.16 µM
CCCOc1cc2c(cc1OC)CCN(CC(=O)NCc1ccccn1)C2Cc1ccc(OC)c(OC)c1 (stereo not drawn),HCRTR1,,,,,0.0206 ± 0.0055 µM
CC1NC(NCCC[C@H](N)C(=O)O)=NC1=O (stereo partly drawn),V domain R98A,fluorescence titration,,"pH 6.5, 25 °C",,> 10 µM
COC(=O)[C@@H](N)CCCN=C(N)N,"LRP1, CR8 domain (Homo sapiens, UniProt Q07954)",tryptophan fluorescence titration,,"pH 7.4, 298 K, CR8 domain, ionic strength 0.17",,560 ± 20 µM
CC(C)C[C@@H](NC(=O)[C@H](NC(=O)[C@@H](CC(=O)O)NC(=O)[C@H](NC(=O)[C@@H](CC(=O)O)NC(=O)c1ccc(S(N)(=O)=O)cc1)C(C)C)C(C)C)C(N)=O,"CA2 (Homo sapiens, UniProt P00918)","binding, SPR",,,,0.082 µM
CC[C@H](C)[C@H](NC(=O)[C@@H](N)CC(=O)O)C(=O)N1CCC[C@H]1C(=O)N1CCC[C@H]1C(=O)N1CCC[C@H]1C(=O)N[C@@H](CCCNC(=N)N)C(=O)N1CCC[C@H]1C(=O)N1CCC[C@H]1C(=O)N[C@@H](CCCCN)C(=O)N1CCC[C@H]1C(=O)N[C@@H](C)C(=O)N1CCC[C@H]1C(=O)O,GRB2,"binding, ITC",,pH 8,,157 µM
COc1ccc(CC2c3cc(OC)c(OC)cc3CCN2CC(=O)NCCc2ccccc2)cc1OC (stereo not drawn),HCRTR1,,,,,3.25 ± 0.23 µM
